Experimental data of several laboratories.
Each line is one published result; not all experiments were run side by side. Numbers after ± are the reported error.
UCHL1: Ubiquitin carboxyl-terminal hydrolase isozyme L1 (UCHL1, Homo sapiens, UniProt P09936)
Chain of UniProt P09936 (whole entry, looked up): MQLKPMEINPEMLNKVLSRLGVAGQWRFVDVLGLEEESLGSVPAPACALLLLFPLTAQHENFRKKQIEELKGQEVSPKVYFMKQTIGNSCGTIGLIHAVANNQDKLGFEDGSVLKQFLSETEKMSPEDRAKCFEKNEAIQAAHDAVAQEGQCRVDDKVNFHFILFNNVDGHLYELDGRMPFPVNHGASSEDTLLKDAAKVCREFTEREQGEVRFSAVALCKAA

With C[C@@H](O)CCOC(=O)C[C@@H](C)O the mean change was -4 mmHg (refers to: mean arterial pressure; human; oral, dose not given, 60 min post-dose vs pre-dose; baseline: pre-dose).
For CCCC1CCC(c2ccc(-c3ccc(CC)cc3)cc2)CC1 (stereo not shown), “mean serum concentration” read 0.3 ng/mL (human mother-newborn pairs, female fetuses, cord serum).
For O=C(O)CCCCCCCCC(=O)O, “mean daily plasma concentration” read 25.4 ± 5.3 nM (human, plasma; control).
COc1cc(C(=O)O)ccc1NC(=O)[C@@H]1N[C@@H](CC(C)(C)C)[C@](C#N)(c2ccc(Cl)cc2F)[C@H]1c1cccc(Cl)c1F has a mean Ctrough of 2720 ng/mL (human, plasma; 200 mg, steady state, with: venetoclax 600 mg).
The mean concentration of O=S(=O)(O)Oc1cc(O)cc(/C=C/c2ccc(O)cc2)c1 is reported as 2060 nM (human, plasma).
For CCCOc1ccc(-c2ccc(C#N)cc2)cc1, “mean serum concentration” read 0.77 ng/mL (human mother-newborn pairs, cord serum).
Under “mean daily plasma concentration”, C[C@H](CCC(=O)NCC(=O)O)[C@H]1CC[C@H]2[C@@H]3[C@H](O)C[C@@H]4C[C@H](O[C@@H]5O[C@H](C(=O)O)[C@@H](O)[C@H](O)[C@H]5O)CC[C@]4(C)[C@H]3CC[C@]12C is recorded as 33.6 ± 5.8 nM (human, plasma; control).
Under “mean serum concentration”, CCCCc1ccc(-c2ccc(C#N)cc2)cc1 is recorded as 0.18 ng/mL (human mother-newborn pairs, female, maternal serum).
Cn1cc(-c2cn3nccc3c(-c3cnn([C@]4(CC#N)C[C@@H](C#N)C4)c3)n2)cn1 — result for “mean residence time”: 9.2 h (healthy human fed; dose not given, day 10, once daily dosing).
CCC(=O)Nc1ccc(C(=O)CCl)cc1 has a labelling of 8.95% (UCHL1; covalent, intact protein LC-MS; 12.5 µM).
CCCCCc1ccc(C(=O)Oc2ccc(C#N)c(F)c2)cc1: “mean serum concentration” 0.64 ng/mL (human mother-newborn pairs, cord serum).
CC#CC(=O)N1CCOc2ccccc2C1C(=O)NC(C)(C)C (stereo not shown) has a labelling of 17.5% (UCHL1; covalent, intact protein LC-MS; 12.5 µM).
With c1ccc(Nc2nc(NCC3CCCO3)c3ccccc3n2)cc1 (stereo not shown) the inhibition was 57.5% (Trypanosoma cruzi; reporter translation, Renilla luciferase mRNA translation; cell-free extract; 40 µM; baseline: DMSO).
Under “mean daily dermal uptake”, Cc1ccc(O)c(-n2nc3ccccc3n2)c1 is recorded as 1210 ng/kg body weight/day (exposure assessment; human, age 2-3 years; spray sunscreen).
Under “mean serum concentration”, CCc1ccc(C(=O)Oc2ccc(C#N)c(F)c2)cc1 is recorded as 4.11 ng/mL (human mother-newborn pairs, female fetuses, cord serum).
Under “mean residence time”, CCNCCCNC/C=C\CNCCCNCC is recorded as 1.18 h (LC-MS/MS; human cancer patients, plasma; intravenous infusion 60 min, 100 mg, median, cycle 1).
C[C@H](CCC(=O)NCC(=O)O)[C@H]1CC[C@H]2[C@@H]3CC[C@@H]4C[C@H](OS(=O)(=O)O)CC[C@]4(C)[C@H]3CC[C@]12C — result for “mean daily plasma concentration”: 795 ± 184 nM (human, plasma; baseline).
With Cc1ccc(Sc2ccccc2N2CCNCC2)c(C)c1 the mean Cmax was 3.9 ng/mL (healthy male humans fasted, plasma; oral, 10 mg single).
CCCC1CCC(c2ccc(OCC)c(F)c2F)CC1 (stereo not shown): “mean serum concentration” 2.27 ng/mL (human mother-newborn pairs, maternal serum).
Under “mean daily plasma concentration”, CC(C)CCC[C@@H](C)[C@H]1CC[C@H]2[C@@H]3C(O)CC4=CC(=O)CC[C@]4(C)[C@H]3CC[C@]12C (stereo partly shown) is recorded as 76 ± 13.9 nM (human, plasma; oral, dose not given, control).
For C=CC(=O)N(C)CCOc1c(N)ncnc1-c1cc(F)cc(NC(=O)c2ccc(C3CC3)cc2F)c1C, “mean residence time” read 1.46 h (human, whole blood; oral, 30 mg, single ascending dose).
For N#Cc1ccc2c(c1)[C@H]1CCCN(C(=O)c3ccc4[nH]cnc4c3)[C@H]1C2, “mean ACTH level” read 7.5 pmol/L (human; 160 mg, day 7).
For C[C@H](CCC(=O)NCC(=O)O)[C@H]1CC[C@H]2[C@@H]3[C@H](O)C[C@@H]4C[C@H](O)CC[C@]4(C)[C@H]3C[C@H](O)[C@]12C, “mean daily plasma concentration” read 81.7 ± 9.9 nM (human, plasma; oral, dose not given, control).
CCc1ccc(-c2ccc(-c3cc(F)c(F)c(F)c3)c(F)c2)cc1: “mean serum concentration” 0.46 ng/mL (human mother-newborn pairs, female fetuses, cord serum).
For O=C(O)CCCCCCCCCCCCC(=O)O, “mean daily plasma concentration” read 58.6 ± 14.1 nM (human, plasma; control).
For Cn1cnc2c(F)c(Nc3ccc(Br)cc3Cl)c(C(=O)NOCCO)cc21, “mean transit time” read 0.76 h (population PK model; human, plasma; oral, transit compartment absorption model, fasted).
For C[C@H](CCC(=O)O)[C@H]1CC[C@H]2[C@@H]3CC[C@@H]4C[C@H](OS(=O)(=O)O)CC[C@]4(C)[C@H]3CC[C@]12C, “mean daily plasma concentration” read 308 ± 21 nM (human, plasma; control).
For CCCCOc1ccc([C@H]2CC[C@H](CCC)CC2)c(F)c1F, “mean serum concentration” read 7.5 ng/mL (human mother-newborn pairs, female fetuses, cord serum).
NC[C@@]1(CC(=O)O)[C@@H]2CC[C@H]3C[C@@H]2[C@@H]1C3 — result for “mean residence time”: 9.37 h (human, moderate renal impairment, plasma; oral, 20 mg single dose, geometric mean).
For C[C@H](CCC(=O)NCCS(=O)(=O)O)[C@H]1CC[C@H]2[C@@H]3CC[C@@H]4C[C@H](OS(=O)(=O)O)CC[C@]4(C)[C@H]3CC[C@]12C, “mean daily plasma concentration” read 127 ± 31 nM (human, plasma; baseline).
With O=C(O)[C@H]1O[C@@H](Oc2ccc(/C=C\c3cc(O)cc(O)c3)cc2)[C@H](O)[C@@H](O)[C@@H]1O the mean concentration was 502 nM (human, plasma).

Excerpt of the above:
CCc1ccc(-c2ccc(-c3cc(F)c(F)c(F)c3)c(F)c2)cc1: “mean serum concentration” 0.46 ng/mL (human mother-newborn pairs, female fetuses, cord serum).
For O=C(O)CCCCCCCCCCCCC(=O)O, “mean daily plasma concentration” read 58.6 ± 14.1 nM (human, plasma; control).
For Cn1cnc2c(F)c(Nc3ccc(Br)cc3Cl)c(C(=O)NOCCO)cc21, “mean transit time” read 0.76 h (population PK model; human, plasma; oral, transit compartment absorption model, fasted).
For C[C@H](CCC(=O)O)[C@H]1CC[C@H]2[C@@H]3CC[C@@H]4C[C@H](OS(=O)(=O)O)CC[C@]4(C)[C@H]3CC[C@]12C, “mean daily plasma concentration” read 308 ± 21 nM (human, plasma; control).
For CCCCOc1ccc([C@H]2CC[C@H](CCC)CC2)c(F)c1F, “mean serum concentration” read 7.5 ng/mL (human mother-newborn pairs, female fetuses, cord serum).
